Assay results collected from several papers.
Lines come from different studies, so protocols differ. Numbers after ± are the reported error.

Compound | tested on | test | test system | setting | scale | endpoint | result
O=C(/C=C/CCl)OC1CCOC1=O (racemic) | Vibrio harveyi | quorum sensing bioluminescence, inhibitor | BB120 | – | – | IC50 | 15.9 µM
Nc1nc(-c2ccccc2)nc2[nH]nc(Nc3ccc(F)cc3)c12 | coxsackievirus B3 | plaque formation, plaque reduction | HeLa, Nancy, resistant mutant S2209C | – | – | IC50 | 32.5 ± 4.59 µM
CC(=O)CCC1C(=O)NC(C(C)C)C(=O)NC(Cc2cccc(O)c2)C(=O)N2CCCC(N2)C(=O)OC(C(C)=CC=CC(=O)N2CCCCO2)CC=CC=CC(O)C(C)C1O (centres unmarked) | Human immunodeficiency virus 1 | viral replication, flow cytometry | HeLa | 48 h | – | IC50 | 0.31 µM
N=C(N)NCCC[C@@H]1NC(=O)[C@H](CCCCNC(=O)CC[C@H](NC(=O)CCOCCOCCOCCOCCNC(=O)CC[C@H](NC(=O)CN2CCN(CC(=O)O)CCN(CC(=O)O)CCN(CC(=O)O)CC2)C(=O)NCCOCCOCCOCCOCCC(=O)N[C@@H](CCC(=O)NCCCC[C@@H]2NC(=O)[C@@H](Cc3ccccc3)NC(=O)[C@H](CC(=O)O)NC(=O)CNC(=O)[C@H](CCCNC(=N)N)NC2=O)C(=O)NCCCC[C@@H]2NC(=O)[C@@H](Cc3ccccc3)NC(=O)[C@H](CC(=O)O)NC(=O)CNC(=O)[C@H](CCCNC(=N)N)NC2=O)C(=O)NCCCC[C@@H]2NC(=O)[C@@H](Cc3ccccc3)NC(=O)[C@H](CC(=O)O)NC(=O)CNC(=O)[C@H](CCCNC(=N)N)NC2=O)NC(=O)[C@@H](Cc2ccccc2)NC(=O)[C@H](CC(=O)O)NC(=O)CNC1=O [indium-111 labelled] | – | – | athymic nude mice, female, U-87 MG glioma xenograft, tumour and kidney | intravenous, 1 h | baseline: tumour over kidney | tumour to tissue ratio | 1.6 ± 0.27
O=C(C1CCN(c2nnnn2-c2ccccc2)CC1)N1CCCc2ccccc21 | Plasmodium falciparum | – | erythrocytes, Dd2, eEF2 variant | – | – | IC50 | 1.64 µM
CC1N=C(CCCCCCCCCCC2=CC(CCCCCCCCCCC3=NC(C)C(O)CC3)C3CCCN3C2)CCC1O (centres unmarked) | Cryptococcus neoformans | microbial growth | ATCC90113 | – | – | IC50 | 0.66 µg/mL
COc1cc2c(cc1OC)-c1c(OC)c(OC)cc3c1[C@H](C2)N(C)CC3 | Schistosoma mansoni | contractility, antagonist | schistosomula | 30 min, with: 5-HT 10 µM | – | IC50 | 3.9 ± 0.72 µM
Oc1ccc2[nH]c3c(c2c1)CCN=C3C1=C[C@@]2(O)CC/C=C\CCCCN3CC[C@@H]1[C@]1(C[C@@H]4/C=C\CCCCN4[C@H]12)C3 | Hepatitis C virus | viral replication, inhibitor, luciferase | – | replicon | – | IC50 | 17.2 µg/mL
CN[C@](C)(C[18F])C(=O)O | MDA-MB-468 tumour model | – | host not given, liver | 1 h, tumour-bearing | – | tracer uptake | 3.3 %ID/g
O=C(/C=C/CF)O[C@@H]1COC(=O)C1 | Vibrio harveyi | quorum sensing bioluminescence, inhibitor | BB120 | – | – | IC50 | 168 µM
CCCC[C@H](NC(=O)CNC(=O)CNC(=O)c1ccc(NN)nc1)C(=O)N[C@H]1CC(=O)NCCCC[C@@H](C(N)=O)NC(=O)[C@H](Cc2c[nH]c3ccccc23)NC(=O)[C@H](CCCNC(=N)N)NC(=O)[C@@H](Cc2ccccc2)NC(=O)[C@H](Cc2c[nH]cn2)NC1=O [technetium-99m labelled] | – | – | C57 mouse, B16/F1 melanoma, urine | intravenous, 24 h | – | uptake | 97.93 ± 0.28 %ID
CCCCCCCCC(=O)NCc1ccc(O)c(OC)c1 | mAb 6-AT6 | antibody binding, indirect competitive ELISA | – | with: coating antigen 3-OVA | – | IC50 | > 4 µg/mL
CC(C)=CCC/C(C)=C/CC/C(C)=C/CNCCOC1C2CC3CC(C2)CC1C3 (centres unmarked) | Saccharomyces cerevisiae | microbial growth | – | – | – | IC50 | 0.7 µg/mL
N=C(N)NCCC[C@@H]1NC(=O)[C@H](CCCCNC(=O)CCOCCOCCOCCOCCNC(=O)CN2CCN(CC(=O)O)CCN(CC(=O)O)CCN(CC(=O)O)CC2)NC(=O)[C@@H](Cc2ccccc2)NC(=O)[C@H](CC(=O)O)NC(=O)CNC1=O [indium-111 labelled] | – | – | athymic nude mice, female, U-87 MG glioma xenograft, tumour and kidney | intravenous, 1 h | baseline: tumour over kidney | tumour to tissue ratio | 0.65 ± 0.1
c1cncc(CCCCCCCCCCCCN2O[C@@H](CCCCCCCCc3cccnc3)[C@H]3CCC[C@H]32)c1 | Hepatitis C virus | viral replication, inhibitor, luciferase | – | replicon | – | IC50 | 5.8 µg/mL
CC(C)=CCNCCOC1C2CC3CC(C2)CC1C3 (centres unmarked) | Saccharomyces cerevisiae | microbial growth | – | – | – | IC50 | 25 µg/mL
CC(=O)O[C@@H]1C[C@@H](C)O[C@H]2O[C@@H]3C[C@@H]4CC[C@@H]5[C@H](CC[C@]6(C)[C@@H](C7=CC(=O)OC7)CC[C@]56O)[C@@]4(C)C[C@H]3O[C@]21O | Schistosoma mansoni | microscopic viability score | adult worms | 72 h | – | IC50 | 0.138 µM

A few entries again:
Compound | tested on | test | test system | setting | scale | endpoint | result
CC(=O)CCC1C(=O)NC(C(C)C)C(=O)NC(Cc2cccc(O)c2)C(=O)N2CCCC(N2)C(=O)OC(C(C)=CC=CC(=O)N2CCCCO2)CC=CC=CC(O)C(C)C1O (centres unmarked) | Human immunodeficiency virus 1 | viral replication, flow cytometry | HeLa | 48 h | – | IC50 | 0.31 µM
CC1N=C(CCCCCCCCCCC2=CC(CCCCCCCCCCC3=NC(C)C(O)CC3)C3CCCN3C2)CCC1O (centres unmarked) | Cryptococcus neoformans | microbial growth | ATCC90113 | – | – | IC50 | 0.66 µg/mL
